Assay results of several laboratories.
Compare with care: the assays were run in different laboratories. ± marks the error that the study gave.
Organism: Leishmania amazonensis

COc1ccc(OC(=O)/C=C/C#N)cc1  IC50 (parasite growth, resazurin; mouse Macrophage; 24 h, intracellular, amastigote): 45.8 µM
O=[N+]([O-])/C=C/c1ccc(Br)o1  minimal parasiticidal concentration (motility arrest; promastigotes; 72 h, 26 °C): 9.5 ± 0.4 µM
N#C/C=C/C(=O)Oc1ccc(Br)cc1  IC50 (parasite growth, resazurin; 72 h, promastigote): 8.14 µM
O=[N+]([O-])/C(Br)=C/c1ccco1  minimal parasiticidal concentration (motility arrest; promastigotes; 72 h, 26 °C): 8.1 ± 0.4 µM
COC(=O)CCn1c2ccc([N+](=O)[O-])cc2c(=O)n1Cc1ccccc1  IC50 (parasite growth, resazurin; 72 h, promastigote): 0.6 µM
O=[N+]([O-])/C=C/c1ccco1  minimal parasiticidal concentration (motility arrest; promastigotes; 72 h, 26 °C): 8.1 ± 0.4 µM
O=c1c2cc([N+](=O)[O-])ccc2n(CCO)n1Cc1ccccc1  IC50 (parasite growth, imaging; mouse Peritoneal macrophage; 48 h, intracellular, amastigote): 9.1 µM
N#C/C=C/C(=O)Oc1cccc(F)c1  IC50 (parasite growth, resazurin; mouse Macrophage; 24 h, intracellular, amastigote): 48 µM
O=c1c2cc([N+](=O)[O-])ccc2n(CCN2CCCC2)n1Cc1ccccc1  IC50 (parasite growth, resazurin; 72 h, promastigote): 0.87 µM
CCOC(=O)c1csc(NN=Cc2ccc(Cl)cc2)n1  IC50 (parasite growth; 72 h, promastigote): 145 µM

Excerpt of the above:
COC(=O)CCn1c2ccc([N+](=O)[O-])cc2c(=O)n1Cc1ccccc1  IC50 (parasite growth, resazurin; 72 h, promastigote): 0.6 µM
O=c1c2cc([N+](=O)[O-])ccc2n(CCN2CCCC2)n1Cc1ccccc1  IC50 (parasite growth, resazurin; 72 h, promastigote): 0.87 µM
